# Published values collected from several papers.
# Each numbered part is a random draw from the data of one study; scales do not carry over between parts.

# Sample 1 — method: protein binding microarray; molecule type: double-stranded DNA, one strand shown; matrix: in vitro; concentration: not given; reference: not given; direction: higher = stronger binding
# Target: Histone acetyltransferase KAT6A, winged helix 1, GST fusion (KAT6A, Homo sapiens, UniProt Q92794, residues 1-85)
# Setting: 8-mer, flanks averaged, mean of 2 arrays, mostly near background
# Residues (chain): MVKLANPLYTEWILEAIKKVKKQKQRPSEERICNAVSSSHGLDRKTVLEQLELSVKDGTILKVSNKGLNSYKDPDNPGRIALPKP
Sequence,E-score
GGGGTCGA,0.0131
ACGCCTAG,0.208
CCTAGTAC,-0.0357
AGCTGAGC,-0.0271
TAACCGGA,0.172

# Sample 2 — method: competition protein-binding microarray; molecule type: double-stranded DNA, one strand shown; matrix: in vitro; concentration: 2 µM; together with: Pho4 competitor, 0.05 µM; direction: higher = stronger binding; shared flanks, not repeated: … GTCTTGATTCGCTTGACGCTGCTG
# Target: Centromere-binding protein 1, full length, His-tagged (CBF1, Saccharomyces cerevisiae, UniProt P17106, residues 1-351)
# Chain of UniProt P17106 (whole entry, looked up): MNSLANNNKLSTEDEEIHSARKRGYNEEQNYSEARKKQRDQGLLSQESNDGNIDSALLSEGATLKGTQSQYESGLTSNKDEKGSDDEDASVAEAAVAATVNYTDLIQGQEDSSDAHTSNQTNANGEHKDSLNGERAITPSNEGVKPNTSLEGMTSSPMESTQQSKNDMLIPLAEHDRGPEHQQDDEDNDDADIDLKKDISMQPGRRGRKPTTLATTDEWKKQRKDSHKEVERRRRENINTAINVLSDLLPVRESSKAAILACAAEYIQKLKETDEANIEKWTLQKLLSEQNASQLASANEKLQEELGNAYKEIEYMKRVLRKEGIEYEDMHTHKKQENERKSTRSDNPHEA
# Setting: whole 60-bp probe, lowest competitor level
Sequence,fluorescence intensity [a.u.]
TGCGCAACAACTTGGTGAGTGGGTGTATGTCTAGAA,65.3
GCCCGGTCAAGTACTCACGTTCTGCTGTAGGTGACG,102
CGTCCTAGTGATTTTCACGTGCGGTCCATGAGGAAG,804
CAACCGCATCGGCTCAACCTGATCTTGCAATTAGCA,68.3
GTCTTGTCTCATTGTGAGGTGGGTGTCCCCACTTCA,102

# Sample 3 — method: protein-binding microarray; molecule type: double-stranded DNA, one strand shown; matrix: in vitro; concentration: 250 nM; setting: 60-bp whole probe; together with: salmon DNA 0.4 mg/ml; reference: random background probes; direction: higher = stronger binding
# Target: Interferon regulatory factor 7, full length, phosphomimetic (IRF7, Homo sapiens, UniProt Q92985, residues 1-503, S101K/S471D/S472D/S475D/S476D/S477D/S483D/S484D/S487D)
# Chain of UniProt Q92985 (whole entry, unmodified, looked up): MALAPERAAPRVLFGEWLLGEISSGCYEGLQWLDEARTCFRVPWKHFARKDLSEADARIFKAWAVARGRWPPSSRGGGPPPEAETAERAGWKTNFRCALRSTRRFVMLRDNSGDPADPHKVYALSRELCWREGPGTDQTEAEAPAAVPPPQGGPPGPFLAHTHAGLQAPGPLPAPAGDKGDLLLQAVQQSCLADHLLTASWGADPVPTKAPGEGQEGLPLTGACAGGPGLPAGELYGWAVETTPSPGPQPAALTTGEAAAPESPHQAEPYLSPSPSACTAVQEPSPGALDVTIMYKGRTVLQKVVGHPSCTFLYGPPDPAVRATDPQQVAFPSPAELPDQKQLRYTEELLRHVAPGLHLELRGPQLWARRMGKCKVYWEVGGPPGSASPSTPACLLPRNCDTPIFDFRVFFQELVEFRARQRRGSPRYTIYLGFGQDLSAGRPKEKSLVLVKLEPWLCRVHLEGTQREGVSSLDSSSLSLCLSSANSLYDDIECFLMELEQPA
Sequence,log fluorescence [z-score]
GCCTAGCACTTAGGACTGGACACTTGGTTAGTGCTAGTCTTGATTCGCTTGACGCTGCTG,-0.718
GCCTAGCACGACGGACTGGACACTGAGGACGTGCTAGTCTTGATTCGCTTGACGCTGCTG,-0.791
GCCTAGCACTTAGGTTGCCTACTGCTTTAGTGCTAGGTCTTGATTCGCTTGACGCTGCTG,-0.41
GCCTAGCACGACGGTCTCGCACTGGGGACGTGCTAGGTCTTGATTCGCTTGACGCTGCTG,-0.0267

# Mixed results
Molecule,target,assay,test system,setting,how to read,quantity,value
"PhoQ, residues 284 288 289 292 302 303 NLAAMI","PhoP, residues 12 14 15 18 19 HEGLL (Escherichia coli, UniProt P23836)","Sort-seq, item: YFP reporter",E. coli,"PhoQ-PhoP variant library, together with: 10 µM Mg2+","reference: high Mg2+ state, higher = stronger signaling",fold induction,16.6

# Some of these lines once more (sample 3):
Sequence,log fluorescence [z-score]
GCCTAGCACTTAGGTTGCCTACTGCTTTAGTGCTAGGTCTTGATTCGCTTGACGCTGCTG,-0.41
GCCTAGCACGACGGACTGGACACTGAGGACGTGCTAGTCTTGATTCGCTTGACGCTGCTG,-0.791
